# Assay results pooled from the literature.
# Every numbered part comes from another study and shows a few of its results, in no order.
# Chain of UniProt Q9UM73 (whole entry, unmodified, looked up): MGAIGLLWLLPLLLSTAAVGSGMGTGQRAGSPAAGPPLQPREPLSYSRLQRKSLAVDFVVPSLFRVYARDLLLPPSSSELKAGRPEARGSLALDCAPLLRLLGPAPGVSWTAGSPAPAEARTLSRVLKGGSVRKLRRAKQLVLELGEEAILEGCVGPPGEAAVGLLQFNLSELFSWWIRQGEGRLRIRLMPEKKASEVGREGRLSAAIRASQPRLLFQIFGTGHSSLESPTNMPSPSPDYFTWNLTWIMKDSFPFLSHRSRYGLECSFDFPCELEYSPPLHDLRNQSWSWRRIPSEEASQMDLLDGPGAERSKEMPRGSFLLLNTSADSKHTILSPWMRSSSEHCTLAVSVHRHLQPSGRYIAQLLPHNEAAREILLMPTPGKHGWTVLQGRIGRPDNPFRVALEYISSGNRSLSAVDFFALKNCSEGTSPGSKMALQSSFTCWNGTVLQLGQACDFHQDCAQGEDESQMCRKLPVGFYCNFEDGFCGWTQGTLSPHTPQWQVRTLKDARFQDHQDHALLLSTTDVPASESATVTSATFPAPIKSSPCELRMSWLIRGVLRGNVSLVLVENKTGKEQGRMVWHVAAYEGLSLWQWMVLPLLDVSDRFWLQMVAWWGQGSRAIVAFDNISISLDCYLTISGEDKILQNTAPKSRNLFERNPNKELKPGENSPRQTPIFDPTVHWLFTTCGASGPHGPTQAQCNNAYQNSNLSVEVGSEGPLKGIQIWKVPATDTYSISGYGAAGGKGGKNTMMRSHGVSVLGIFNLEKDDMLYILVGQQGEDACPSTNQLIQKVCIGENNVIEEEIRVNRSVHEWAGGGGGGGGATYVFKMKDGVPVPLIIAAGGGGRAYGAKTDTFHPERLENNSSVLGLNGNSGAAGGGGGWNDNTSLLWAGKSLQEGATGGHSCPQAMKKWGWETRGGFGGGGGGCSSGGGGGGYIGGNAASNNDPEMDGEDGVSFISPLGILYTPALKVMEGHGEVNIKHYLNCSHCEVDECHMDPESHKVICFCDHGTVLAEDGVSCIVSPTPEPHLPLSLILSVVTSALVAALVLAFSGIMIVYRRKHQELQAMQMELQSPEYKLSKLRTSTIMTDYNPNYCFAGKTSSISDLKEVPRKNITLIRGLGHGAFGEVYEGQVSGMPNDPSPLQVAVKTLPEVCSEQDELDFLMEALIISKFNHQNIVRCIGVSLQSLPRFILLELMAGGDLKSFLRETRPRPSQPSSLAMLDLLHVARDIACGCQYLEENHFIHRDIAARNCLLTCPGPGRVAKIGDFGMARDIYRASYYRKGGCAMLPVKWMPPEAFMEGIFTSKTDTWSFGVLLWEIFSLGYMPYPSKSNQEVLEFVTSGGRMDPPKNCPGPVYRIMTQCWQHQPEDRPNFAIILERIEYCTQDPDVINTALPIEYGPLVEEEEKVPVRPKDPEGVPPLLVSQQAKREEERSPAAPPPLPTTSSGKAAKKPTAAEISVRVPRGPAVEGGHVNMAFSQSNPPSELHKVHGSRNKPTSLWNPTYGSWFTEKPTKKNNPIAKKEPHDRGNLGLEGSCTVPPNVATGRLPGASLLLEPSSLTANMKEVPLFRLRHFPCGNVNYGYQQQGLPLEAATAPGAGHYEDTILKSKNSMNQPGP
# Chain of UniProt P21709 (whole entry, looked up): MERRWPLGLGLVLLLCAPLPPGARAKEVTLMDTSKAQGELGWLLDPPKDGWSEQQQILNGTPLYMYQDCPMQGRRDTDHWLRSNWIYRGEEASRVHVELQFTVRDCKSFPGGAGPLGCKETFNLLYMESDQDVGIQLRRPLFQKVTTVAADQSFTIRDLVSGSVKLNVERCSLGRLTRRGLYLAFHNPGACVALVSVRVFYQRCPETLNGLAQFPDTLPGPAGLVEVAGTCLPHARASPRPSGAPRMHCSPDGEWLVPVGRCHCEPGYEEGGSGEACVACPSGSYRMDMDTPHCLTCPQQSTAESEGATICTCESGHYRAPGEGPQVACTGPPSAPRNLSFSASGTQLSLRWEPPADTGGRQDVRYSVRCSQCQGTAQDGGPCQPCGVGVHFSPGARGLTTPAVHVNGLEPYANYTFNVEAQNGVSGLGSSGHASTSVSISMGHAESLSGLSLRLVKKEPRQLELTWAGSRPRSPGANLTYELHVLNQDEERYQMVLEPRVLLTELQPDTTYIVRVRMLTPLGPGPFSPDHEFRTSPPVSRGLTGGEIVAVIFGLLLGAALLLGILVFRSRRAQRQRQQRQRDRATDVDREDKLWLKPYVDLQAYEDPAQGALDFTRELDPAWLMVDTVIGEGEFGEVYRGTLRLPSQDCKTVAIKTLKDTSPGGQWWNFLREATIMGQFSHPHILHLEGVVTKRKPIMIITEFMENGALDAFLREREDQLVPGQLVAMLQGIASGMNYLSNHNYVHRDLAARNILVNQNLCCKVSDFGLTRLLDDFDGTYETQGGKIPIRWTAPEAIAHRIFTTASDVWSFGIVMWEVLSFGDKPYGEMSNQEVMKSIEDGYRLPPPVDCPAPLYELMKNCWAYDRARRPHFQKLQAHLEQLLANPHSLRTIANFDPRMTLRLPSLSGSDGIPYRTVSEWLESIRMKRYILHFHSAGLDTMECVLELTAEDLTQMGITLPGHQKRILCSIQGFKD

# Set 1 — technique: universal PBM; molecule type: double-stranded DNA, one strand shown; sample: in vitro; tested at: 600 nM; direction: higher = stronger binding
# Target: Sal-like protein 4, full length isoform A (SALL4, Homo sapiens, UniProt Q9UJQ4, residues 1-1053)
# Chain of UniProt Q9UJQ4 (whole entry, looked up): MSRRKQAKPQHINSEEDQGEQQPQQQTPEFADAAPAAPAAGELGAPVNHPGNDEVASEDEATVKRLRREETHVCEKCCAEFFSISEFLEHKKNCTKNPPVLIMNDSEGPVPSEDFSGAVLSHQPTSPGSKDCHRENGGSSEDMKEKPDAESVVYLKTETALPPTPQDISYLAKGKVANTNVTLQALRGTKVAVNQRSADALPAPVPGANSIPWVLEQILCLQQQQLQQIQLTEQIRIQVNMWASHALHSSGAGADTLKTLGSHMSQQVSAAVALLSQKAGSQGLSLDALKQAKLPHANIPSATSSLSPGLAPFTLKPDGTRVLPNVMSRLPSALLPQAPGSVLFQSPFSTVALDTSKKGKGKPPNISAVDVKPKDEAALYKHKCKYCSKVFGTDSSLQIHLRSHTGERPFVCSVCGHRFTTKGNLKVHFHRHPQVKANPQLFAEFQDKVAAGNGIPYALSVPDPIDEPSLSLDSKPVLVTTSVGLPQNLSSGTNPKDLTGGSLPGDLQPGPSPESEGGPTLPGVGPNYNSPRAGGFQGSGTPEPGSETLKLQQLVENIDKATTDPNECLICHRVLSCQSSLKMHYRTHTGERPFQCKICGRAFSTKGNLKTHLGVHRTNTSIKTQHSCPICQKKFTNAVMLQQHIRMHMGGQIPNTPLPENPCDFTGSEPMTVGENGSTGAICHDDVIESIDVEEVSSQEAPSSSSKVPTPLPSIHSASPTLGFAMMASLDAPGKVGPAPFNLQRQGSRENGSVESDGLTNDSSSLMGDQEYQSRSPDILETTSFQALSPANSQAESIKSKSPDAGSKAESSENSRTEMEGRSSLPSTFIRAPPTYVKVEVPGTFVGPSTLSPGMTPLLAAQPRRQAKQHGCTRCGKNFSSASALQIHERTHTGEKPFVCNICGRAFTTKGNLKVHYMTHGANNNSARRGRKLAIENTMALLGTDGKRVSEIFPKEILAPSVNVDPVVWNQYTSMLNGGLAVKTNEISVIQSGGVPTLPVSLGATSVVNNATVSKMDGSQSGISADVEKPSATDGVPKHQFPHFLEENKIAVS
# Setting: 8-mer, flanks averaged, mean of replicates
Oligonucleotide,E-score
CAATGTGG,-0.000475
ATATGAGC,0.159
ATCTAGCC,-0.158
AACCGGTA,-0.105
GTCTTTGA,0.11
CCTAGTTA,0.00675
AACACGCA,0.104
ATCGACTC,-0.00962

# Set 2 — effect on: cell-free assay; technique: competition with immobilised ligand; tested at: 1 µM
# Structure (SMILES): O=C(Nc1cnc(Oc2ccc(F)cc2)nc1)N1CCc2ncccc2[C@@H]1c1ccc(F)cc1
target,remaining binding
"ALK (Homo sapiens, UniProt Q9UM73, C1156Y)",90%
"CDK2 (Homo sapiens, UniProt P24941)",100%
"EPHB2 (Homo sapiens, UniProt P29323)",87%
"EPHA1 (Homo sapiens, UniProt P21709)",100%
"EGFR (Homo sapiens, UniProt P00533, L858R/T790M)",70%

# Set 3 — technique: protein-binding microarray; molecule type: double-stranded DNA, one strand shown; sample: in vitro; tested at: 0.8 µM; setting: whole 60-bp probe, no competitor; direction: higher = stronger binding; shared flanks, not repeated: … GTCTTGATTCGCTTGACGCTGCTG
# Target: Centromere-binding protein 1, full length, N-terminal tag (CBF1, Saccharomyces cerevisiae, UniProt P17106, residues 1-351)
# Chain of UniProt P17106 (whole entry, looked up): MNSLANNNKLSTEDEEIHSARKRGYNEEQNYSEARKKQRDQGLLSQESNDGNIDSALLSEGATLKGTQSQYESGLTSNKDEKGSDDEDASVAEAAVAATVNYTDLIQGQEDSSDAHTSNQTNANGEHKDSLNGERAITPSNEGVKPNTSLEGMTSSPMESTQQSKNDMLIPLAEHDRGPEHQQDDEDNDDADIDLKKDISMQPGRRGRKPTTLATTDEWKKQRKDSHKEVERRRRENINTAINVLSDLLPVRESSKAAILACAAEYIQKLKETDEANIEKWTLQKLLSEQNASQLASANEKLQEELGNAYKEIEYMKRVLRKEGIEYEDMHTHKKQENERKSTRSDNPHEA
Oligonucleotide,fluorescence intensity [a.u.]
CTAAAAAAGAGCACCCTCATGATTTCTTGCTCTTTC,513
GAATGTTTAATATGGCACGTCGCCTCATTCAAATAG,951
GAACTCTTCAATCCTAACATCAGTAATGCTTTTTAG,536
CTATCATGCATACTTCATCTGACCAATATATTTTTC,685
CTAGTGCTTTGTTGTTCACGTGCTTTTCACGTGTTC,10200
CTAAAGTAAACTTCTCACCTGTAAATACTAGTATTC,516
GAAGAGTCCCATCATCACGCCCATCCTTTTGCATAG,584
GAAAATACATCTGTGGTCATTTAGCTACTGCAGTAG,520

# Set 4 — effect on: enzyme activity; mode: inhibitor; tested at: 0.5 µM; baseline: control
# Target: Dual specificity protein kinase CLK2 (CLK2, Homo sapiens, UniProt P49760)
# Chain of UniProt P49760 (whole entry, looked up): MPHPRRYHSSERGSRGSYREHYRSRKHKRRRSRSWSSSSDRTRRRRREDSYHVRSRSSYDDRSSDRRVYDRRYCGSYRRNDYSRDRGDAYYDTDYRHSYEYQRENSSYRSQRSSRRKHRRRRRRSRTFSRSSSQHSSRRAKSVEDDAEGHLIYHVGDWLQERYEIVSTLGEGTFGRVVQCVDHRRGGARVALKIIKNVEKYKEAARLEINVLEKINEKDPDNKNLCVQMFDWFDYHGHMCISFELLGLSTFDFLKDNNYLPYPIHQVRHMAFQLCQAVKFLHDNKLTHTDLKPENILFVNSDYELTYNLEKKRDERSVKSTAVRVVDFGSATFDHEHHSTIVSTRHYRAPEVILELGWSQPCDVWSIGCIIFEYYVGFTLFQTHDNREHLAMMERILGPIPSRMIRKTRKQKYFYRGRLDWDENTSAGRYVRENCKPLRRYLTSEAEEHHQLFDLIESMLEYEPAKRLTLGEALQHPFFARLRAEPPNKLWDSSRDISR
SMILES,remaining activity [%]
OCC(O)CCON=C1C(c2c(O)[nH]c3ccccc23)=Nc2ccccc21 (stereo not drawn),92
Cn1c2ccccc2c2c3c(c4c5ccccc5n(CCC#N)c4c21)CNC3=O,88.7
CNC(=O)c1cc(Oc2ccc(NC(=O)Nc3ccc(Cl)c(C(F)(F)F)c3)cc2)ccn1,92.8
COc1ccc(C(=O)Nc2sc3c(c2C(N)=O)CCCC3)cc1OC,86.5
O=S(=O)(c1cccc2cnccc12)N1CCCNCC1,95.1
CCOC(=O)c1c(C)[nH]c(/C=C2\C(=O)Nc3ccccc32)c1C,86
O=C(CCCc1ccc(-c2ccccc2F)cc1)Nc1ccc(O)cc1,103
CN(C)c1ccc(C=C2C(=O)Nc3ccccc32)cc1,99.7
O=C(O)c1ccc2c3c1cccc3c(=O)n1c3ccccc3nc21,91
O=C1NC(=O)C(c2cn(CCCn3ccnc3)c3ccccc23)=C1Nc1ccccc1,14.7
Cn1sc(=O)n(Cc2ccccc2)c1=O,98.5
COc1ccc(OC)c2c(=S)c3ccccc3[nH]c12,81.2

# Excerpt of the above (set 3):
Oligonucleotide,fluorescence intensity [a.u.]
CTAGTGCTTTGTTGTTCACGTGCTTTTCACGTGTTC,10200
CTAAAGTAAACTTCTCACCTGTAAATACTAGTATTC,516
GAAGAGTCCCATCATCACGCCCATCCTTTTGCATAG,584
